{"data": "Assay results collected from several papers", "note": "A part holds a random share of what one study measured. Substitutions count along the parent as printed."}
{"data": "Series 1", "target": "Sox, HMG box (Pigoraptor chileana)", "method": "Spec-seq", "molecule type": "double-stranded DNA, one strand shown", "medium": "in vitro", "concentration": "not given", "notes": "whole probe, mean of replicates", "relative to": "not given", "reading": "lower = stronger binding", "constant ends, left off below": "GAGTCGTCTCGTCAGCAC … CCGTAGAGCACTCAGGTC", "Residues (chain)": "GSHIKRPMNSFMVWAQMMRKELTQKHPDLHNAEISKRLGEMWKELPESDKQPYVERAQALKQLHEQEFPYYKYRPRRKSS"}
{"Strand": "TGCCGTT", "relative binding energy": "0.908 ln ratio"}
{"Strand": "CATCTTT", "relative binding energy": "0.404 ln ratio"}
{"Strand": "CATCGGC", "relative binding energy": "0.426 ln ratio"}
{"Strand": "TGACGTT", "relative binding energy": "0.561 ln ratio"}
{"Strand": "CATAACC", "relative binding energy": "0.248 ln ratio"}
{"Strand": "CCACGTT", "relative binding energy": "0.88 ln ratio"}
{"Strand": "TGTTGTT", "relative binding energy": "-2.06 ln ratio"}
{"Strand": "GCTAGTT", "relative binding energy": "0.284 ln ratio"}
{"data": "Series 2", "target": "Ras GTPase-activating protein-binding protein 1, full length (G3BP1, Homo sapiens, UniProt Q13283)", "method": "RNA Bind-n-Seq", "molecule type": "RNA", "medium": "in vitro", "concentration": "200 nM", "notes": "whole 134-nt RNA, ends assumed", "added": "150 mM KCl", "relative to": "input library", "reading": "higher = stronger binding", "constant ends, left off below": "GGGAGUUCUACAGUCCGACGAUC … UGGAAUUCUCGGGUGUCAAGG", "chain of UniProt Q13283 (whole entry, looked up)": "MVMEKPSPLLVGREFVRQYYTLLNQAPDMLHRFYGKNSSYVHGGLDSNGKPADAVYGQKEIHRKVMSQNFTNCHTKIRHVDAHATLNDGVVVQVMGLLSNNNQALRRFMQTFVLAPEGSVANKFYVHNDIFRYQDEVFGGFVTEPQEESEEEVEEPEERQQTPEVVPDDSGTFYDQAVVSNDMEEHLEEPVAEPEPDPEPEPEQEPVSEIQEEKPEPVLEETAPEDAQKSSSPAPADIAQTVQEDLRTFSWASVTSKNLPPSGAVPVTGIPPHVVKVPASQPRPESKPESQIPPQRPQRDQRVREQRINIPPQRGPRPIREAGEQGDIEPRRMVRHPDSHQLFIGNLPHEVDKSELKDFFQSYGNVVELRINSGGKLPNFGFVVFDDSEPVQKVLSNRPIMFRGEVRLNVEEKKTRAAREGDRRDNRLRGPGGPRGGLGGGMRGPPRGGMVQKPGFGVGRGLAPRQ"}
{"Strand": "ACCAUGCAGGUGGGCAUCUUUGGGAAGUGGGGCAAGGGGGGGAUAGGGAGGGGGGUAACACUUUGGGAAUAGGUGGUCCCAGGUCGUUUC", "log2 enrichment": 1.01}
{"Strand": "GUCCUGUGCUACACAUCGUAUGUACCGAAUCGGGAAAAAAAGGGUUUUUGGGAAAGGGAAAGUAUUAUGUUACGCCGUUCGGAUCUGCAC", "log2 enrichment": -0.61}
{"Strand": "CCUGUGCUACACAUCGUAUGUACCGAAUCGGGAAAAAAAGGGUUUUUGGGUUUUUUUGGGAAAGUAUUAUGUUACGCCGUUCGGAUCUGC", "log2 enrichment": -0.947}
{"Strand": "UCAAGUCCUGUGCUACACAUCGUAUGUACCGAAUCGGCCCGGCCCGGGGCCCGGAAAGUAUUAUGUUACGCCGUUCGGAUCUGCACUUCC", "log2 enrichment": -0.877}
{"Strand": "UCCUGUGCUACACAUCGUAUGUACCGAAUCAAAUUUUUAAACCCCCAAAUUUUUUUAAAAAAGUAUUAUGUUACGCCGUUCGGAUCUGCA", "log2 enrichment": 0.267}
{"Strand": "GUCCUGUGCUACACAUCGUAUGUACCGAAUCAAACCCAAAUUUUUAAAUUUUUUUAAAAAAGUAUUAUGUUACGCCGUUCGGAUCUGCAC", "log2 enrichment": -0.404}
{"Strand": "UCAGCAACCACCUCAACUCAUUGACUCCGCCAACAUCCGUCAGGAGGAUGCCUUUGAUAACAACAGUGACAUUGCUGAAGAUGGUGGCCA", "log2 enrichment": -0.973}
{"Strand": "GCAGGAAGUAAAAACAAAUGGAAAUGCUUCGGAUAGUGGCAGGGGUGGUGGUUGCUAAGGAAAGGGUGGGAUGGGAGUGGGUAAAGAGUU", "log2 enrichment": 0.789}
{"data": "Mixed results", "P1": "PafA, mature enzyme, eGFP fusion (Elizabethkingia meningoseptica, UniProt Q9KJX5); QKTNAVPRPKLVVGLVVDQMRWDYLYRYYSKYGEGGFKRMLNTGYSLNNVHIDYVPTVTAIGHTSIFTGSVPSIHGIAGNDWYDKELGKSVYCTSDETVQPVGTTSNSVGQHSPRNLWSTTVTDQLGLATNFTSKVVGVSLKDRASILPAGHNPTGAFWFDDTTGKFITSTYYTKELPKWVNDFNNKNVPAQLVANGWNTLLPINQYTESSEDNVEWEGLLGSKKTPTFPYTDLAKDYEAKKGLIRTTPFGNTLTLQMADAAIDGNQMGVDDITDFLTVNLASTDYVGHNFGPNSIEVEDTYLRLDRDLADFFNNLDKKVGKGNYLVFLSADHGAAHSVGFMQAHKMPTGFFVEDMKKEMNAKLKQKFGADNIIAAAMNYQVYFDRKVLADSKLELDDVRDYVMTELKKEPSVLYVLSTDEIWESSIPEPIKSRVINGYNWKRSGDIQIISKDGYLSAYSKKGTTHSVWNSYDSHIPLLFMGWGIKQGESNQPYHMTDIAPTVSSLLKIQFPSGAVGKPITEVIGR"}
{"Substance": "P1 A390G", "target or system": "tungstate, free oxyanion", "assay": "microfluidic competitive inhibition", "system": "in vitro, cell-free expressed", "setting": "not given, derived from inhibition constants, unchanged parent 2230 nM", "how to read": "lower = stronger binding", "measurement": "oxyanion analog dissociation constant", "result": "2140 nM"}
{"Substance": "ATP5PD (Homo sapiens, UniProt O75947)", "target or system": "ATP5PF (Homo sapiens, UniProt P18859)", "assay": "cross-linking MS", "system": "cells", "setting": "added: BSPNO", "measurement": "cross-linked residues", "result": "K63 to K79"}
{"note": "Excerpt of the above (series 2):"}
{"Strand": "UCCUGUGCUACACAUCGUAUGUACCGAAUCAAAUUUUUAAACCCCCAAAUUUUUUUAAAAAAGUAUUAUGUUACGCCGUUCGGAUCUGCA", "log2 enrichment": 0.267}
{"Strand": "UCAAGUCCUGUGCUACACAUCGUAUGUACCGAAUCGGCCCGGCCCGGGGCCCGGAAAGUAUUAUGUUACGCCGUUCGGAUCUGCACUUCC", "log2 enrichment": -0.877}
